# Experimental data gathered from unrelated publications.
# Protocols differ between the studies behind these lines. ± marks the error that the study gave.
Compound,assay,test system,conditions,scale,measurement,result
CC(C)[C@H](NC(=O)CN)C(=O)N[C@@H](CCCCN)C(=O)NCC(=O)N[C@@H](CC(=O)O)C(=O)N[C@@H](CCCCN)C(=O)NCC(=O)N[C@@H](CC(N)=O)C(=O)N1CCC[C@H]1C(=O)NCC(=O)N[C@@H](Cc1c[nH]c2ccccc12)C(=O)N1CCC[C@H]1C(=O)NCC(=O)N[C@@H](C)C(=O)N1CCC[C@H]1C(=O)O,,"B104 neuroblastoma, rat","100 µg/mL coating, peptide-coated plates",reference: input cells,cell adhesion,18.5%
Cc1cccc(O[C@H]2CCC[C@@H](C(C)CNCc3ccncc3)C2)c1 (relative stereo),,APP/PS1 mouse,"dose not given, chronic treatment",,plasma TNFα level,decreased
Cc1cc(O)cc(O)c1C(=O)c1c2c3c(c(O)cc(C)c3oc1=O)C(=O)c1c(O)cc(O)cc1-2,,"Bel-7402 xenograft, mouse","intraperitoneal, 28 mg/kg, day 21",,T/C,48.8%
Cc1cc(O)c(C=O)c2c1C(=O)Oc1c(CO)c(O)c3c(c1O2)C(O)OC3=O (stereo not shown),copulatory behaviour test,"rat, male, streptozotocin-induced diabetes","5 mg/kg, day 63",,post-ejaculatory interval,1400 ± 120 s
NS(=O)(=O)NCCc1ccccc1F,MES seizures,mouse,intraperitoneal,,ED50,45 mg/kg
COc1cc2c(cc1OC)-c1cc3ccc(OC)c(OC)c3c[n+]1CC2,,"rat, STZ-induced diabetic, liver","oral, 12 mg/kg, day 28",,catalase activity,28.9 ± 1.44 U/mg protein
O=c1c(OCc2ccccc2)c(-c2cccc([N+](=O)[O-])c2)oc2ccccc12,,diabetic rat,"7.5 mg/kg, day 14, p-nitrophenyl β-glucoside induced",,blood glucose,241 ± 4.9 mg/dL
CSCC[C@@H]1NC(=O)[C@H](CCCCN)NC(=O)[C@H]([C@@H](C)O)NC(=O)[C@H](CCCCN)NC(=O)[C@H](CC(C)C)NC(=O)[C@H](CCCCN)NC(=O)[C@H](CCCNC(=N)N)NC(=O)[C@@H]2CSSC[C@@H]3NC(=O)[C@@H]4CCCN4C(=O)[C@H](C(C)C)NC(=O)[C@H](CCC(N)=O)NC(=O)[C@H](CCC(N)=O)NC(=O)CNC(=O)[C@H](CC(C)C)NC(=O)[C@@H]4CSSC[C@H](NC(=O)[C@H]([C@@H](C)O)NC(=O)[C@H](C)NC(=O)[C@H](CSSC[C@@H](C(=O)N[C@@H](CO)C(=O)N[C@@H](CCCNC(=N)N)C(=O)N[C@H](C(N)=O)[C@@H](C)O)NC(=O)[C@@H]5CCCN5C(=O)[C@H](CC(N)=O)NC1=O)NC(=O)[C@@H]1CCCN1C(=O)[C@H](CC(=O)O)NC(=O)[C@H](CSSC[C@H](NC(=O)[C@H](CCCNC(=N)N)NC(=O)[C@H](CCCNC(=N)N)NC(=O)[C@H](CO)NC(=O)[C@@H](N)CO)C(=O)N[C@@H](C(C)C)C(=O)N[C@@H](CCCNC(=N)N)C(=O)N[C@@H](CC(C)C)C(=O)N[C@@H](Cc1c[nH]cn1)C(=O)N[C@@H](CCC(=O)O)C(=O)N[C@@H](CO)C(=O)N4)NC3=O)C(=O)N[C@@H](Cc1ccc(O)cc1)C(=O)N[C@H]1CSSC[C@H](NC(=O)[C@H](Cc3ccccc3)NC(=O)[C@H](C)NC(=O)[C@H](CC(N)=O)NC(=O)[C@H](Cc3ccccc3)NC(=O)[C@H](Cc3ccccc3)NC(=O)[C@H](CCCNC(=N)N)NC1=O)C(=O)N[C@@H](Cc1ccc(O)cc1)C(=O)N2,,"Long-Evans rat, male","intracerebroventricular, 1.0 nmol in 1.0 µL, 24 h, non-cumulative",reference: saline,food intake,116 ± 7.5 % above saline
N#Cc1c(Nc2ccccc2C(F)(F)F)s[nH]c1=O,,"mouse, sciatic nerve axotomy, plasma","intraperitoneal, 30 mg/kg, two doses, 15 h",reference: vehicle,plasma NfL decrease,-60%
CC[C@H]1[C@@H](O)[C@@H]2[C@H](CC[C@]3(C)[C@@H]([C@H](C)CCOS(=O)(=O)[O-])CC[C@@H]23)[C@@]2(C)CC[C@@H](O)C[C@@H]12.[Na+],"immunohistochemistry, measured: galectin-3","ob/ob NASH mouse model, liver","10 mg/kg, 16 weeks",,fractional area,2.9 ± 0.1%
CC(C)[C@@H]1NC(=O)[C@H](Cc2ccccc2)NC(=O)[C@]2(CC[C@H](c3ccccc3)CC2)NC(=O)[C@@H](N)CSSC[C@@H](C(=O)N2CCC[C@H]2C(=O)N[C@@H](CCCNC(=N)N)C(=O)NCC(N)=O)NC(=O)[C@H](CC(N)=O)NC1=O,"anti-oxytocic activity, antagonist",isolated rat uterus strips,without Mg2+,,pA2,8.22
CC[C@H](C)[C@@H]1NC(=O)[C@H](Cc2ccccc2)NC(=O)[C@H](CCC(=O)O)NC(=O)[C@H](CCCNC(=N)N)NC(=O)CNC(=O)[C@@H](NC(=O)[C@H](CC(C)C)NC(=O)[C@H](CCCNC(=N)N)NC(=O)[C@@H](NC(=O)CNC(=O)[C@H](Cc2ccc(O)cc2)NC(=O)[C@@H]2CCCN2C(=O)[C@H](C)NC(=O)[C@H](C)NC(=O)[C@@H](N)CCCNC(=N)N)C(C)C)CSSC[C@@H]2NC(=O)[C@@H](NC(=O)[C@H](CO)NC(=O)[C@H](CO)NC(=O)[C@H](CO)NC(=O)[C@H](CC(C)C)NC(=O)CNC(=O)[C@H](C)NC(=O)[C@H](CC(C)C)NC(=O)[C@@H](NC(=O)[C@@H](N)CC(=O)O)C(C)C)CSSC[C@H](NC(=O)CNC(=O)[C@H](Cc3c[nH]c4ccccc34)NC(=O)[C@H](CCCCN)NC2=O)C(=O)N[C@@H](CO)C(=O)N[C@@H](CCCCN)C(=O)N[C@@H](CO)C(=O)N[C@@H](CCC(=O)O)C(=O)N[C@@H]([C@@H](C)CC)C(=O)N[C@@H](CO)C(=O)N[C@@H](CO)C(=O)N[C@@H](CC(C)C)C(=O)N[C@H](C(=O)O)CSSC[C@@H](C(=O)NCC(=O)NCC(=O)N[C@@H](CO)C(=O)N[C@@H](CCCNC(=N)N)C(=O)N[C@@H](Cc2c[nH]c3ccccc23)C(=O)O)NC(=O)[C@H]([C@@H](C)O)NC(=O)[C@H](Cc2ccccc2)NC(=O)[C@H]([C@@H](C)CC)NC(=O)[C@H](C(C)C)NC(=O)[C@H](C)NC(=O)[C@H](CCCNC(=N)N)NC1=O,forced swim test,female Sprague-Dawley rats,"intranasal, 275 µg/kg, day 2",reference: vehicle,climbing behaviour,increased
COc1cc(CN2CCN(c3ccc(F)cc3)CC2)c2cc3[n+](cc2c1O)CCc1cc2c(cc1-3)OCO2,"ABTS scavenging, absorbance",,10 min,,IC50,4.64 µg/mL
Cc1ccc(-c2oc3ccccc3c(=O)c2OCc2ccccc2)cc1,,diabetic rat,"7.5 mg/kg, day 28, p-nitrophenyl β-glucoside induced",,blood glucose,150 ± 3.89 mg/dL
CCc1nc(-c2ccc(-c3ccc(CCC(N)(CO)CO)cc3)cc2)co1,western blot,"BALB/c mouse, imiquimod psoriasis model, skin lesion",dose not given,,CD3 protein level,decreased
CCN(CC)CCSc1nnc(C23CC4CC(CC(C4)C2)C3)n1C,paw oedema,rat,"intraperitoneal, 40 mg/kg",,inhibition in vivo,2.06%
O=C1/C(=C/c2ccc(O)c(O)c2)Oc2cc(O)c(-c3ccc(O)c(O)c3)c(O)c21,"DPPH scavenging, absorbance",,,,EC50,420 µM
O=c1c(OCc2ccccc2)c(-c2ccc([N+](=O)[O-])cc2)oc2ccccc12,,diabetic rat,"5 mg/kg, day 1, p-nitrophenyl β-glucoside induced",,blood glucose,401 ± 5.02 mg/dL
O=C(Nc1nc2cc(C(F)(F)F)cc(NC3CC3)n2n1)c1cccnc1,"measured: MCP-1, RANTES, MIP-1α","ASK1 knockout mouse, MOG-induced EAE, spinal cord","30 mg/kg, day 20 post-immunization",reference: vehicle,chemokine mRNA level,no effect
COc1ccc(C2CC(c3ccc(C)cc3)=Nc3ccccc3S2)cc1 (stereo not shown),,"Wistar rat, STZ-induced diabetes","oral, 10 mg/kg once daily, day 28",,blood glucose,132 mg/dL
CCOC(=O)c1cc2cc(-c3cc(C(=O)NCc4ccc(C(=O)O)cc4)nn3C)ccc2[nH]1,,"female B10.RIII mice, antibody-induced arthritis","oral, 100 mg/kg twice daily, day 14, dosing from day 4",reference: vehicle,arthritic score,decreased
Cc1nc(C)c(C=[N+]([O-])C(C)(C)C)nc1C,"immunofluorescence, measured: 8-OHdG","MPTP mouse model, substantia nigra",30 mg/kg,reference: sham,fluorescence intensity,166 ± 6.84%
Cc1cnc(Nc2cc(C)c(C)c(C)c2)nc1Nc1ccc2oc(=O)[nH]c2c1,measured: phospho-STAT3,"rat, OVA asthma model, whole lung homogenate","intratracheal, dose not given, 2 h after OVA challenge",reference: OVA vehicle,STAT3 phosphorylation,inhibited
COc1c2c(cc3oc(C)cc(=O)c13)O[C@H](C(C)(C)O[C@@H]1O[C@H](CO)[C@@H](O)[C@H](O)[C@H]1O)C2,analgesia,mouse,"oral, 2 mg/kg, 0.5 h",,hot plate latency,11.4 ± 2.26 s
CN(C)c1ccc(-c2oc3ccccc3c(=O)c2OCc2ccccc2)cc1,,diabetic rat,"7.5 mg/kg, day 28, p-nitrophenyl β-glucoside induced",,blood glucose,141 ± 4.9 mg/dL
CC1=C(O)C(=O)C=C2C1=CC=C1[C@@]2(C)CC[C@@]2(C)[C@@H]3C[C@](C)(C(=O)NCCOCCOCCOCCOCC(=O)N[C@H](C(=O)N4C[C@H](O)C[C@H]4C(=O)N[C@@H](C)c4ccc(-c5scnc5C)cc4)C(C)(C)C)CC[C@]3(C)CC[C@]12C,flow cytometry,"mouse, B16-F10 melanoma model, tumour","ip, 2 doses of 1.8 mg/kg, day 7, dosed days 1 and 4",,tumour-infiltrating B cells (B220+),30.1%
O=C1c2c(cc(O)c3c2oc2cc(O)c(O)cc23)OC1Cc1ccc(O)cc1 (stereo not shown),"DPPH scavenging, absorbance",,,,EC50,280 µM
Cc1ccc(-c2nc3cc(Cl)ccc3[nH]2)o1,"ABTS scavenging, absorbance",,,,IC50,1.46 µM
COCCOCCOCCOCCOCCOCCOCCOCCOCCOCCOCCOCCOCCOCCOCCOCCOCCOCCOCCOCCOCCOCCNC(=O)CCC1(Cc2ccccc2)c2ccccc2-c2ccc(-c3sc(-c4c5c(c(-c6sc(-c7ccc8c(c7)C(CCC(=O)NCCOCCOCCOCCOCCOCCOCCOCCOCCOCCOCCOCCOCCOCCOCCOCCOCCOCCOCCOCCOCCOCCOC)(Cc7ccccc7)c7ccccc7-8)c7c6OCCO7)c6nsnc46)N=S=N5)c4c3OCCO4)cc21 (stereo not shown),ex vivo NIR-II imaging,"mouse, bile duct ligation","iv, 15 mg/kg, 6 h, day 1",,intestine to liver ratio,~0.5
CC(C)C[C@H](N)C(=O)N[C@@H](CO)C(=O)N[C@@H](Cc1ccccc1)C(=O)N1CCC[C@H]1C(=O)N[C@H](C(=O)N[C@H](C(=O)N[C@@H](CCCCN)C(=O)N[C@H](C(=O)N[C@@H](Cc1ccc(O)cc1)C(=O)N[C@@H](Cc1ccccc1)C(=O)O)[C@@H](C)O)[C@@H](C)O)[C@@H](C)O,radiotelemetry,mouse AngII-induced hypertension,"intraperitoneal, 5 mg/kg every other day",reference: saline,systolic blood pressure decrease,~30 mmHg
CCc1nnc(NS(=O)(=O)c2ccc(NC(=S)NC(=O)/C=C/c3ccc(F)cc3)cc2)s1,cell proliferation,"athymic nude mice, SK-N-AS xenograft, tumour","i.p., 10 mg/kg daily, 18 days",,reduction of Ki-67 staining,25%
COc1ccc(-c2oc3ccccc3c(=O)c2OCc2ccccc2)cc1,,diabetic rat,"5 mg/kg, day 7, p-nitrophenyl β-glucoside induced",,blood glucose,306 ± 4.58 mg/dL
C=C(c1ncc(C(=O)O)cn1)c1cc2c(cc1C)C(C)(C)CCC2(C)C,"RNA sequencing, measured: Inmt mRNA","rat, brain","dose not given, 24 h, single dose",reference: vehicle,log2 fold change,-0.82
CC[C@@H](C)N([11CH3])C(=O)c1nc(-c2ccccc2)c2ccccc2n1,PET from VT,"rhesus monkey, cerebellum",dose not given,,TSPO specific binding,42%
CCCCCCOC(=O)Cc1c(C)n(C(=O)c2ccc(Cl)cc2)c2ccc(OC)cc12,hot plate test,BALB/c mice,"75 mg/kg, 30 min",,latency of nociceptive response,14.4 ± 1.29 s
O=c1c(OCc2ccccc2)c(-c2ccc(Cl)cc2)oc2ccccc12,,diabetic rat,"5 mg/kg, day 14, p-nitrophenyl β-glucoside induced",,blood glucose,210 ± 4.77 mg/dL
CSCC[C@@H]1NC(=O)[C@H](C)NC(=O)[C@H]([C@@H](C)O)NC(=O)CNC(=O)[C@H](CC(C)C)NC(=O)[C@H](CCC(N)=O)NC(=O)[C@H](CCCNC(=N)N)NC(=O)[C@@H]2CSSC[C@@H]3NC(=O)[C@@H]4CCCN4C(=O)[C@H](C(C)C)NC(=O)[C@H](CCC(N)=O)NC(=O)[C@H](CCC(N)=O)NC(=O)CNC(=O)[C@H](CC(C)C)NC(=O)[C@@H]4CSSC[C@H](NC(=O)[C@H]([C@@H](C)O)NC(=O)[C@H](C)NC(=O)[C@H](CSSC[C@@H](C(=O)N[C@@H](CO)C(=O)N[C@@H](CCC(N)=O)C(=O)N[C@H](C(N)=O)[C@@H](C)O)NC(=O)[C@@H]5CCCN5C(=O)[C@H](CC(N)=O)NC1=O)NC(=O)[C@@H]1CCCN1C(=O)[C@H](CC(=O)O)NC(=O)[C@H](CSSC[C@H](NC(=O)[C@H](CCC(N)=O)NC(=O)[C@H](CCC(N)=O)NC(=O)[C@H](CO)NC(=O)[C@@H](N)CO)C(=O)N[C@@H](C(C)C)C(=O)N[C@@H](CCCNC(=N)N)C(=O)N[C@@H](CC(C)C)C(=O)N[C@@H](Cc1c[nH]cn1)C(=O)N[C@@H](CCC(=O)O)C(=O)N[C@@H](CO)C(=O)N4)NC3=O)C(=O)N[C@@H](Cc1ccc(O)cc1)C(=O)N[C@H]1CSSC[C@H](NC(=O)[C@H](Cc3ccccc3)NC(=O)[C@H](C)NC(=O)[C@H](CC(N)=O)NC(=O)[C@H](Cc3ccccc3)NC(=O)[C@H](Cc3ccccc3)NC(=O)[C@H](CCCNC(=N)N)NC1=O)C(=O)N[C@@H](Cc1ccc(O)cc1)C(=O)N2,,"Long-Evans rat, male","intracerebroventricular, 1.0 nmol in 1.0 µL, 24 h, non-cumulative",reference: saline,food intake,37.9 ± 4.4 % above saline
